Results pooled from the literature.
Numbered parts are unrelated; each lists some results of a single study. Substitutions count along the parent as printed.

Series 1 — technique: DHFR PCA, deep sequencing; sample: yeast; added: (+)-ABA 0.032 µM; baseline: wild-type fitted maximum; reading: higher = stronger binding; endpoint: relative binding score
Target: ABI1, truncated, D143A, DHFR fusion (Arabidopsis thaliana)
Notes: methotrexate growth selection, single substitutions
Parent: PYL1, truncated, DHFR fusion (Arabidopsis thaliana); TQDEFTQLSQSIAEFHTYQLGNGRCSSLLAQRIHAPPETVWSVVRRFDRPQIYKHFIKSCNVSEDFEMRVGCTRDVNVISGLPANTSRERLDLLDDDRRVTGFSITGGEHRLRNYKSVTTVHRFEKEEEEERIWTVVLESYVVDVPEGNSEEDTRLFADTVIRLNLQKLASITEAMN; partner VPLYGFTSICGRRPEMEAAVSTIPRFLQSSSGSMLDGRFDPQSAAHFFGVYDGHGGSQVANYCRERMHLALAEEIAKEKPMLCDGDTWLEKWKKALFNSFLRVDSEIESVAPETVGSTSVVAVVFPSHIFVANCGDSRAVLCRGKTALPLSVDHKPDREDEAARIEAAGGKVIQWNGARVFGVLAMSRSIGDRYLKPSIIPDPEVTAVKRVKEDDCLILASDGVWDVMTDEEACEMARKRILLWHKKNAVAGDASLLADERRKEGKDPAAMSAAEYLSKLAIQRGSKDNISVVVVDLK
S42R: 12.8%
T86I: 39.4%
R49F: -2.76%
T173L: -3.53%
S80M: 40.1%
I133E: 56.7%
E64F: 3.28%
S59V: -0.337%
S26E: -7.19%
I79T: 26.3%
Q31T: -4.26%
K116G: 1.27%
M68T: 13.9%
V137N: -2.79%
R69W: -3.81%
V118P: 1.33%
M176C: 8.18%
D3G: 3.65%
F47R: -2.75%

Series 2 — technique: protein binding microarray; molecule type: double-stranded DNA, one strand shown; sample: in vitro; concentration: not given; baseline: not given; reading: higher = stronger binding; endpoint: E-score
Target: Histone acetyltransferase KAT6A, both winged helices, GST fusion (KAT6A, Homo sapiens, UniProt Q92794, residues 1-181)
Notes: 8-mer, flanks averaged, mean of 2 arrays, mostly near background
Residues (chain): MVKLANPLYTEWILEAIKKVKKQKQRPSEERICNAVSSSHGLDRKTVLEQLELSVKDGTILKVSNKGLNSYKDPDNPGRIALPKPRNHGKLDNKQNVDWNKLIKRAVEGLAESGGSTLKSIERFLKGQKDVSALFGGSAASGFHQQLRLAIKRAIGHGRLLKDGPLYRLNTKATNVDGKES
CATACACA: -0.121
CGTAGGAC: 0.0807
GAACTCTC: -4e-05
GTGTTGGA: -0.24
ACGAGAAC: 0.00903
CGATGACA: -0.0563
AAACCCAG: -0.174
ACGGCATC: 0.292
GTATCTAA: 0.123
ACTTACTG: -0.0306
AACTCTGC: -0.161
AAGCAGTG: -0.105
ACTGCTGA: -0.0773
AGTTGTTA: -0.0312
AACTGGCT: -0.236
CAACATCA: -0.117
CTTTGATC: -0.159
GACATCCC: 0.0843
CCAGGTAG: -0.157
CCGATGGC: 0.0966
AACCTTTG: -0.046
AGAGCTAT: -0.133
GCTATCTA: -0.00734
ACGAACGC: 0.165
ACATTCAA: 0.0213

Series 3 — technique: RNA Bind-n-Seq; molecule type: RNA; sample: in vitro; concentration: 365 nM; baseline: no-protein control; reading: higher = stronger binding; endpoint: RBNS enrichment (R)
Target: RNA binding protein fox-1 homolog 2, RRM domain, GST-SBP tag (RBFOX2, Homo sapiens, UniProt O43251-10, residues 100-194)
Notes: natural RNA segment, single round, ends assumed
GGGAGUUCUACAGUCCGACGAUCAGCAAACGGUUCUAAAUGAAAAUCAGCAAACCUGAAAGCCUGGGAUUCUGACGCCUACUGGCUCUAUGUAAUUAUUAAGUCACAUUGACCUCUGUGUAGGGCUGUUUUCCUGGAAUUCUCGGGUGCCAA: 0.367
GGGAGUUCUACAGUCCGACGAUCUAAUAUACAGAGCAUUUUGACUUCUAAAUAGUUAGAUCCAGAGAUGAAGUGCACUGUUCUCUCUUCAUUACGGUCCUGUUUAAGAGCCCAGCUAGUCUAUCUGAGCUCUCUGGAAUUCUCGGGUGCCAA: 0.473
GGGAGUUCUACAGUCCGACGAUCACCAUCUCUCUCUCCCCCUACCUACCAAACUAUCCACAAUUUAAAUAAAGAACUGCUGUGUCUGACUACUCUCAAUAAAAGUUUGUGUCUUUAUUUCUGGUCUCUAGACUUGGAAUUCUCGGGUGCCAA: 0.971
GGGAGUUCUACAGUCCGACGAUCCUAAGGUCUUGUGCCAGCAUCUACCCACACCUGGUUCUGUUCACUGUGGUCUGCCCACACCUGUCUACUCUGGCAUGUGUCAGGAAAAGGAGCGUCAAAGGUGACCUUUAUGGAAUUCUCGGGUGCCAA: 1.92
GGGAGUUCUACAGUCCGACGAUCUUGAAGAAACUUGCAGUGUCGAGUGCUGCUUGACAUGCCAGAUGUGUCAGACACUCAACUGACAUUACUACUUUAGUUCCUUUUGCUUUUUUCAUUUAUCUGUGGAAACAUGGAAUUCUCGGGUGCCAA: 0.391
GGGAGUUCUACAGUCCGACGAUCCUUGAAGAAAAGAAUAGAAUUCUCUAGAGCAGAGUAUUUUAGUAUUUGUAACUGGCAGACUCUGGUUCCAUUGUAUUUGUUUCAAAAUGUGUUUUUGUUUGUUUGUUUGUUGGAAUUCUCGGGUGCCAA: 3.39
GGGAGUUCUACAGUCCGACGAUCAUGGAGAUGCUCAAGGCCAGCAAGCCCCUCAGGCCAGCACUUCGCUUGCAGAAGCCAUCCAUUCACUCCUGGGGUGCAGGGCACGCAAGAGAGCUUCCCAUUGCUUCUGCUGGAAUUCUCGGGUGCCAA: 0.902
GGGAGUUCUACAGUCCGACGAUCUACUUAAAUACACACUGCGAAGAGUGAAAAGCUUGGAAAAGCAGAGUUGGGAGGACCCCGAGGAAAGGCAUUUGGGGCUGUGUAGAGAGGCUUGGACUGUGUGAGAACUGUGGAAUUCUCGGGUGCCAA: 0.977
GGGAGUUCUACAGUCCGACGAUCUCAUAAGAAGCUGAGAGAAAGAGAGGGGAAAAAGAAAGUGGCUUUCUACUUUCAAAAAUGAAACAAAAAGGAAAAAUGGCAAAGUACUGUUUUAGCUGUGCAUGUCAUAUUGGAAUUCUCGGGUGCCAA: 2.37
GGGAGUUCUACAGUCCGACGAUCCGGUGGUGAUAUUUUUCAUCCCCAACCCAUUGGACUCCAUCAUAUAAUCAUGAGUCAUGCAGAGCCAAGAAAAGAAAUAUAUUAUGGUAUAUGUAAAGUGAUAUUUCGCUUGGAAUUCUCGGGUGCCAA: 0.666
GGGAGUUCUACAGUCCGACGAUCUUCCUUACUCCUGUUGGCUUGAUGGAACAGGUGCAUUCACACUAUGAAACAGAAAGAUCUGUCCAAGGACACAGCUUGUAUGAAAGGGUUGAAUUUGGGCUCCAUCAGUAUGGAAUUCUCGGGUGCCAA: 2.38
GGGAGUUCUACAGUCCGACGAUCUCAGAGUGAGGGGCAUAGUGAAAAAGGAACAGCCAUGCCUCAAAAUCAAAUCAUUUGCAUUCCCACAGCAUCCUGAAUACCGACUACCUCUUCACUUGCUAAAGCAGCUAUGGAAUUCUCGGGUGCCAA: 0.38

Series 4 — technique: protein-binding microarray; molecule type: double-stranded DNA, one strand shown; sample: in vitro; concentration: 2540 nM top; notes: 60-bp whole probe; added: salmon DNA 0.4 mg/ml; baseline: random background probes; reading: higher = stronger binding; endpoint: fitted relative affinity; all sequences stand within: GCCTAGCAC … GTCTTGATTCGCTTGACGCTGCTG
Target: Interferon regulatory factor 3, full length, phosphomimetic (IRF3, Homo sapiens, UniProt Q14653, residues 1-427, S386D/S396D/S398D/S402D/T404D/S405D)
Sequence of UniProt Q14653 (whole entry, unmodified, looked up): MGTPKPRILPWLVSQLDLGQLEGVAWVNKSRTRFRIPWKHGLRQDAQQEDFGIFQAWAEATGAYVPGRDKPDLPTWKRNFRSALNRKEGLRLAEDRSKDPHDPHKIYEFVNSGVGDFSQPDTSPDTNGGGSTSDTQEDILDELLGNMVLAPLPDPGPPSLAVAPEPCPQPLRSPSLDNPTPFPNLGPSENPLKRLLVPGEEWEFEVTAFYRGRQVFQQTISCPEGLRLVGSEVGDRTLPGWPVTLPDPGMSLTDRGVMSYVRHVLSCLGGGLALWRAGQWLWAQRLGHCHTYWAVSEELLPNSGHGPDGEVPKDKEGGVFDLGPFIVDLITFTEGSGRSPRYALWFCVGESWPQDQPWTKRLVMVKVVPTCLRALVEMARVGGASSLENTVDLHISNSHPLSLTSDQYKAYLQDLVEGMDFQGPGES
GACGGTATCGACACTGCGGACGTGCTA: 0.763 z-score
TTCTTTATGCACTCTTTACATGTGCTA: 1.02 z-score
TCAAGTTTTCCTTCATGACTGTGCTAG: 2.48 z-score
GACGGTCTCTGTCTCGGGACGTGCTAG: 0.714 z-score
GACGTTATCCTACTGCTGACGTGCTAG: 1.27 z-score
GACGAACTCAGTTTCGAGACGTGCTAG: 2.35 z-score
CTCCCCTTGCTTTCCAATTCGTGCTAG: 2.61 z-score
TTTGAACTGGGGTATCGATTAGTGCTA: -0.217 z-score
GACGGTTTCGGGACTGGGGGCGTGCTA: 4.5 z-score
TTAGGACTTCTTATCCTTTAGTGCTAG: 0.528 z-score
TTGGGACTGGGTATCGGTTAGTGCTAG: 0.045 z-score
TACTTTCTACTTCTCTTTTTGTGCTAG: 3.28 z-score
GACGGTATCGGTTACGGGACGTGCTAG: 3.98 z-score
GACGCTCTCAGACTGGAGACGTGCTAG: -0.196 z-score
TCAAGTCCCATGTTGCAGACTGTGCTA: 0.153 z-score
GACGGACTGCTACTGCGGACGTGCTAG: -0.606 z-score
TAAGGTCTCCTTATCCTTTAGTGCTAG: 2.65 z-score
GCCGAACTGAGACTGGAGACGTGCTAG: 0.839 z-score
GCTGACACTAACACAGTGGTGTGCTAG: -0.458 z-score
TTAGGGATCCTTTTCCTTTAGTGCTAG: 6.65 z-score
GACGCTTTCCTTTCCCTGACGTGCTAG: 7.81 z-score

Series 5 — technique: universal PBM; molecule type: double-stranded DNA, one strand shown; sample: in vitro; concentration: 600 nM; reading: higher = stronger binding; endpoint: E-score
Target: Sal-like protein 4, full length isoform A (SALL4, Homo sapiens, UniProt Q9UJQ4, residues 1-1053)
Sequence of UniProt Q9UJQ4 (whole entry, looked up): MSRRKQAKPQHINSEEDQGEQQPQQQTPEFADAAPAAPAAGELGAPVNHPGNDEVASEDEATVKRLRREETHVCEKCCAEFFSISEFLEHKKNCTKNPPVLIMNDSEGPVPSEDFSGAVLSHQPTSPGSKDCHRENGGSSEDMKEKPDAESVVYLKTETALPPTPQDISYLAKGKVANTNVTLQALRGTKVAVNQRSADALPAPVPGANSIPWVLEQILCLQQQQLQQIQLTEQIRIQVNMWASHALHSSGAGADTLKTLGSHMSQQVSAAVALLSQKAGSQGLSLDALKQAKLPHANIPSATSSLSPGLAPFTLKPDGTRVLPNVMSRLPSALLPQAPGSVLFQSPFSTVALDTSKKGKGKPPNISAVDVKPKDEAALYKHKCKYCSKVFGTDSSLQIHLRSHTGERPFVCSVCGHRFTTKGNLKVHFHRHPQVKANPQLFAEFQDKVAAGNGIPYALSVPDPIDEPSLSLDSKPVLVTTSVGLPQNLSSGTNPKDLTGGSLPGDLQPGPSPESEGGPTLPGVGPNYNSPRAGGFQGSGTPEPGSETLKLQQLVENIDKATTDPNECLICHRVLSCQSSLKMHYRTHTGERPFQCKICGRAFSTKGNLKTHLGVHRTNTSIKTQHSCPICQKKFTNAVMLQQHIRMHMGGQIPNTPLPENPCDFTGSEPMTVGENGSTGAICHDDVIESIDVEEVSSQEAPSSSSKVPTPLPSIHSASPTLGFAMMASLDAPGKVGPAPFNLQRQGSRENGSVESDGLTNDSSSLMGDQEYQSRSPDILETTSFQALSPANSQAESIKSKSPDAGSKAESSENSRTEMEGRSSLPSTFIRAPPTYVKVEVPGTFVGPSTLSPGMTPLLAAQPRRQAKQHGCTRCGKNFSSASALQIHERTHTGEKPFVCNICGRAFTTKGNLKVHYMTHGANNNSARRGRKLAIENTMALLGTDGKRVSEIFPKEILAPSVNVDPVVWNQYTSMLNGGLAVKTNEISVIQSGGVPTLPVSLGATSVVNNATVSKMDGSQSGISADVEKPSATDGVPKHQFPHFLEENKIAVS
Notes: 8-mer, flanks averaged, mean of replicates
CATTCAGC: -0.0605
AGAAGCGA: -0.0123
ATCCTCGC: -0.158
GCGGTACA: -0.162
CGGCTGGA: -0.288
CACGACAG: -0.126
GAACCGTC: -0.0437
GAGTCCCA: -0.241
CTGCTCGA: -0.241
AGAATCAC: -0.0486
ATTCCGGG: -0.125
GGAGCCGA: -0.373
CGGGACTA: -0.187
TATAATGA: 0.336
TGAAGGAA: 0.229
AACGGTAT: 0.0984
CAAAAGGG: -0.0717
CCATATGC: 0.0843

Repeated from above (series 3):
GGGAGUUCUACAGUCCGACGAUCAGCAAACGGUUCUAAAUGAAAAUCAGCAAACCUGAAAGCCUGGGAUUCUGACGCCUACUGGCUCUAUGUAAUUAUUAAGUCACAUUGACCUCUGUGUAGGGCUGUUUUCCUGGAAUUCUCGGGUGCCAA: 0.367
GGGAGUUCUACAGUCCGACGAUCUAAUAUACAGAGCAUUUUGACUUCUAAAUAGUUAGAUCCAGAGAUGAAGUGCACUGUUCUCUCUUCAUUACGGUCCUGUUUAAGAGCCCAGCUAGUCUAUCUGAGCUCUCUGGAAUUCUCGGGUGCCAA: 0.473
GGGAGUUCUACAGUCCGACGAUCACCAUCUCUCUCUCCCCCUACCUACCAAACUAUCCACAAUUUAAAUAAAGAACUGCUGUGUCUGACUACUCUCAAUAAAAGUUUGUGUCUUUAUUUCUGGUCUCUAGACUUGGAAUUCUCGGGUGCCAA: 0.971
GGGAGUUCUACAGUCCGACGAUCCUAAGGUCUUGUGCCAGCAUCUACCCACACCUGGUUCUGUUCACUGUGGUCUGCCCACACCUGUCUACUCUGGCAUGUGUCAGGAAAAGGAGCGUCAAAGGUGACCUUUAUGGAAUUCUCGGGUGCCAA: 1.92
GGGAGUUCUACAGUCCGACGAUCUUGAAGAAACUUGCAGUGUCGAGUGCUGCUUGACAUGCCAGAUGUGUCAGACACUCAACUGACAUUACUACUUUAGUUCCUUUUGCUUUUUUCAUUUAUCUGUGGAAACAUGGAAUUCUCGGGUGCCAA: 0.391
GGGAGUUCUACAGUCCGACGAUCCUUGAAGAAAAGAAUAGAAUUCUCUAGAGCAGAGUAUUUUAGUAUUUGUAACUGGCAGACUCUGGUUCCAUUGUAUUUGUUUCAAAAUGUGUUUUUGUUUGUUUGUUUGUUGGAAUUCUCGGGUGCCAA: 3.39
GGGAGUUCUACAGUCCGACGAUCAUGGAGAUGCUCAAGGCCAGCAAGCCCCUCAGGCCAGCACUUCGCUUGCAGAAGCCAUCCAUUCACUCCUGGGGUGCAGGGCACGCAAGAGAGCUUCCCAUUGCUUCUGCUGGAAUUCUCGGGUGCCAA: 0.902
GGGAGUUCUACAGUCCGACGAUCUACUUAAAUACACACUGCGAAGAGUGAAAAGCUUGGAAAAGCAGAGUUGGGAGGACCCCGAGGAAAGGCAUUUGGGGCUGUGUAGAGAGGCUUGGACUGUGUGAGAACUGUGGAAUUCUCGGGUGCCAA: 0.977
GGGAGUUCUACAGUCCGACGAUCUCAUAAGAAGCUGAGAGAAAGAGAGGGGAAAAAGAAAGUGGCUUUCUACUUUCAAAAAUGAAACAAAAAGGAAAAAUGGCAAAGUACUGUUUUAGCUGUGCAUGUCAUAUUGGAAUUCUCGGGUGCCAA: 2.37
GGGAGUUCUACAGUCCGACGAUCCGGUGGUGAUAUUUUUCAUCCCCAACCCAUUGGACUCCAUCAUAUAAUCAUGAGUCAUGCAGAGCCAAGAAAAGAAAUAUAUUAUGGUAUAUGUAAAGUGAUAUUUCGCUUGGAAUUCUCGGGUGCCAA: 0.666
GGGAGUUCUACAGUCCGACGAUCUUCCUUACUCCUGUUGGCUUGAUGGAACAGGUGCAUUCACACUAUGAAACAGAAAGAUCUGUCCAAGGACACAGCUUGUAUGAAAGGGUUGAAUUUGGGCUCCAUCAGUAUGGAAUUCUCGGGUGCCAA: 2.38
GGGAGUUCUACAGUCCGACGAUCUCAGAGUGAGGGGCAUAGUGAAAAAGGAACAGCCAUGCCUCAAAAUCAAAUCAUUUGCAUUCCCACAGCAUCCUGAAUACCGACUACCUCUUCACUUGCUAAAGCAGCUAUGGAAUUCUCGGGUGCCAA: 0.38
